# Results from different studies.
# Compare with care: the assays were run in different laboratories. ± marks the error that the study gave.
# Target: Cytochrome P450 3A4 (CYP3A4, Homo sapiens, UniProt P08684)
# UniProt P08684, sequence (whole entry, looked up): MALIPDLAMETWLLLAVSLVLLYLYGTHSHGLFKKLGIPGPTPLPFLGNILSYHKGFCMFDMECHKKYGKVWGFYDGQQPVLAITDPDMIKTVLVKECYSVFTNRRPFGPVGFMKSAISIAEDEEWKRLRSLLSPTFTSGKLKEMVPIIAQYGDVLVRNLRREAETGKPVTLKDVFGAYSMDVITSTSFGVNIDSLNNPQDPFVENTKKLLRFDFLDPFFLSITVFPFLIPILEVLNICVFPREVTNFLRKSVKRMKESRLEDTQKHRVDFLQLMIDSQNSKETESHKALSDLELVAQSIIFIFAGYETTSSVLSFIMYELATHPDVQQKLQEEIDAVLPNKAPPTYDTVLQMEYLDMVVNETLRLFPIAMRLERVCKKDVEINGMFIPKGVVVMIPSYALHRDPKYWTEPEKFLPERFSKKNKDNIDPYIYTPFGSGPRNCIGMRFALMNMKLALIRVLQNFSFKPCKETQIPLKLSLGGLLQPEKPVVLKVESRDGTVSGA
SMILES,assay,test system,setting,scale,measurement,value
O=C(N[C@@H](Cn1cncn1)c1ccc(Cl)cc1Cl)c1ccc(-c2nnc(-c3ccccc3)o2)cc1,,,,,IC50,2910 ± 227 nM
CC(C)(C)OC(=O)NC(CSC(Cc1ccccc1)C(=O)NCCCc1cccnc1)CC1c2ccccc2-c2ccccc21 (mixture of isomers),thermal stability,,,,ΔTm,4.5 °C
NS(=O)(=O)NCC(F)(F)c1ccccc1F,"enzyme activity, inhibitor",,,,IC50,> 74000 nM
O=C(NCCCc1cccnc1)C(Cc1ccccc1)SCC(Cc1ccccc1)NC(=O)C(F)(F)F (centres unmarked),,,"16 µM, 2 h, together with: 10 mM H2O2",baseline: ligand-free enzyme,heme destroyed,29%
O=C(Nc1nc(C(F)(F)F)co1)C1c2ccccc2Oc2ccccc21,"enzyme activity, inhibitor",,3A4,,IC50,> 30000 nM
CNc1c(C)n(C)n(-c2ccccc2)c1=O,"4-aminoantipyrine formation, substrate, recombinant supersomes",,"50 µM, up to 2 h",,N-demethylation,inactive
CC(=O)OC1(C(C)=O)CCC2C3C=C(C)C4=CC(=O)C(O)CC4(C)C3CCC21C (centres unmarked),substrate,,,,Hill coefficient,2 ± 0.4
O=C(CNC(=O)C(F)(F)F)NC(CSC(Cc1ccccc1)C(=O)NCCCc1cccnc1)Cc1ccccc1 (centres unmarked),thermal stability,,,,ΔTm,6.4 °C
CCc1nc(N)nc(N)c1C#CC(C)c1cccc(-c2cc(C)nc(C)c2)c1 (racemic),"enzyme activity, inhibitor, fluorescence",,,,IC50,500 nM
CC(C)c1nc(CN(C)C(=O)NC(C(=O)NC(Cc2ccccc2)CC(O)C(Cc2ccccc2)NC(=O)OCc2cccs2)C(C)C)cs1 (centres unmarked),"binding, absorbance",,,,Kd,500 nM
CCC1CC2C(C)=CC3C(=O)CCCC3C=CC(C)=CC2C(=O)O1 (centres unmarked),,human liver microsomes,"10 µM, 10 min, pH 7.4, together with: testosterone 2 µM",baseline: untreated,remaining activity,80.9%
Cc1cccc(-c2cccc(C)n2)n1.[Cl-].[Cl][Ru+].c1ccc(-c2cccc(-c3ccccn3)n2)nc1,"enzyme activity, inhibitor",,dark,,IC50,> 50000 nM
CCc1nc(N)nc(N)c1C#C[C@H](C)c1cc(-c2ccncc2)ccc1OC,"enzyme activity, inhibitor, fluorescence",,,,IC50,50 nM
CC1CCC2(OC1)OC1CC3C4CC=C5CC(OC6OC(CO)C(OC7OC(CO)C(O)C7O)C(O)C6OC6OC(C)C(O)C(O)C6O)CCC5(C)C4CCC3(C)C1(O)C2C (centres unmarked),testosterone 6β-hydroxylation,pooled human liver microsomes,"100 µM, 1 h, pH 7.4",baseline: vehicle,remaining activity,17.8%
O=C(CS(=O)(=O)Cc1ccco1)C12CC3CC(CC(C3)C1)C2,"enzyme activity, inhibitor",,"10 µM, together with: substrate BQ",,inhibition,52%
COc1ccc2cc(NC(=O)c3cc(-c4ccncc4)nc4ccccc34)ccc2c1,"substrate, LC-MS, refers to: 5-hydroxylated naphthalene metabolite",baculosomes,,,metabolite fraction,~40%
Brc1ccccc1-c1nnc(CSc2nnnn2-c2ccccc2)o1,"enzyme activity, inhibitor, fluorescence",insect cell microsomes,10 µM,,inhibition,91%
CC(C)c1nc(CN(C)C(=O)NC(C(=O)NC(Cc2ccccc2)CC(O)C(N)Cc2ccccc2)C(C)C)cs1 (centres unmarked),"binding, absorbance",,,,Kd,3600 nM
O=C(CNC(=O)C(F)(F)F)NC(CSC(Cc1ccccc1)C(=O)NCCc1cccnc1)Cc1ccccc1 (centres unmarked),"enzyme activity, inhibitor",,,,IC50,240 nM
COc1ccc2cc(NC(=O)c3cc(-c4cccnc4)nc4ccccc34)ccc2c1,"substrate, refers to: metabolites M1 plus M2",baculosomes,,,kcat,0.273 s⁻¹
Cc1ccc(OCC(=O)N(Cc2cccs2)c2ccn[nH]2)cc1,"enzyme activity, inhibitor, fluorescence",Sf9,10 µM,,inhibition,88%
CCc1nc(N)nc(N)c1C#CC(C)c1cc(-c2cc(C)nc(C)c2)ccc1OC (racemic),"enzyme activity, inhibitor, fluorescence",,,,IC50,11000 nM
O=C(NCCCc1cccnc1)C(Cc1ccccc1)SCC(Cc1ccccc1)NS(=O)(=O)c1ccccc1 (centres unmarked),,,"16 µM, 2 h, together with: 10 mM H2O2",baseline: ligand-free enzyme,heme destroyed,26%

# Some of these lines once more:
SMILES,assay,test system,setting,scale,measurement,value
O=C(CNC(=O)C(F)(F)F)NC(CSC(Cc1ccccc1)C(=O)NCCCc1cccnc1)Cc1ccccc1 (centres unmarked),thermal stability,,,,ΔTm,6.4 °C
CCc1nc(N)nc(N)c1C#CC(C)c1cccc(-c2cc(C)nc(C)c2)c1 (racemic),"enzyme activity, inhibitor, fluorescence",,,,IC50,500 nM
